# Experimental data of several laboratories.
# Numbered parts are unrelated; each lists some results of a single study. Substitutions count along the parent as printed.

# Block 1
# Target: CCNB3, cyclin fold, Cln2 fusion (human)
# Technique: yeast growth competition, sequencing
# Medium: yeast
# Setting: strong parent motif
# Baseline: not given
# Direction: higher = stronger binding
# Starting sequence: viral docking peptide; YKVKRRLVFGADD
Variant,normalised enrichment score
YKVKSRLVFGADD [R5S],0.0817
YYVKRRLVFGADD [K2Y],1.81
YKYKRRLVFGADD [V3Y],0.0779
YKVKRREVFGADD [L7E],0.0212
YKVKRGLVFGADD [R6G],0.0552
YKVKRRLVQGADD [F9Q],-0.0697
YKVKRRLVFGMDD [A11M],1.77
YKVARRLVFGADD [K4A],0.646
YKVKRRDVFGADD [L7D],0.0321
YEVKRRLVFGADD [K2E],2.15
YKVKRRLVFGYDD [A11Y],1.55
YKVKIRLVFGADD [R5I],0.617
YKVKRRFVFGADD [L7F],0.362
YKVKRRLVKGADD [F9K],-0.118
YKVKRRLVFGAED [D12E],1.72
YKVKRRLVFVADD [G10V],1.53
YKVKRRLVFGHDD [A11H],1.82
YKVKRRLEFGADD [V8E],2.04
YCVKRRLVFGADD [K2C],2.38
YKVKYRLVFGADD [R5Y],0.144
YKVTRRLVFGADD [K4T],0.272
YKCKRRLVFGADD [V3C],2.14
YKVKTRLVFGADD [R5T],0.281
YKVKRRLVFGAKD [D12K],1.87
YKVKRDLVFGADD [R6D],0.179

# Block 2
# Target: HLA class I histocompatibility antigen, A alpha chain, allele A*80:01 (Homo sapiens, UniProt P04439)
# Observed: peptide-MHC binding
# Molecule type: peptide
# Tested at: concentration not given
Sequence,binding
YLQYSISTA,inactive
VVDALRNIY,inactive
YDRLASTVI,inactive
ASLLRRWPK,inactive

# Block 3
# Target: Eukaryotic initiation factor 4A-I (EIF4A1, Homo sapiens, UniProt P60842, residues 1-406, full length assumed)
# Sequence of UniProt P60842 (whole entry, looked up): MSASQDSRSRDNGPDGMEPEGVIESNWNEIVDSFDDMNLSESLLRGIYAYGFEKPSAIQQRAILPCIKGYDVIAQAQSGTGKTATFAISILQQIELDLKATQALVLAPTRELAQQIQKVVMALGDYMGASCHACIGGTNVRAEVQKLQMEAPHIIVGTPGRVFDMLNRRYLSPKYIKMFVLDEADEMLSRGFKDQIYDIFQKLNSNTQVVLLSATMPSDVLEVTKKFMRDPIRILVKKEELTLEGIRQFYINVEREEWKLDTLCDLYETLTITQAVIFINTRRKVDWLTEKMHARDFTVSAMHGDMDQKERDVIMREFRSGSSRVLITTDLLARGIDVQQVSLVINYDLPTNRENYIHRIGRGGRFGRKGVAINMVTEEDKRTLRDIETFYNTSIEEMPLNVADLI
# Technique: RNA Bind-n-Seq
# Molecule type: RNA
# Medium: in vitro
# Tested at: 15 pmol
# Setting: 4-mer, random 30-nt RNA, single round
# With: 3 µM DMDA-PatA, 2 mM AMP-PNP
# Baseline: input library
# Direction: higher = stronger binding
Oligonucleotide,4-mer enrichment [fold]
CACA,0.619
UCAC,0.509
AAAA,0.849
AACC,0.391
GCGA,1.17
CUGG,0.791
AUGU,1.43
UUAU,1.13

# Block 4
# Target: Fragile X messenger ribonucleoprotein 1, C-terminal low-complexity region (Fmr1, Mus musculus, UniProt P35922)
# Technique: RNA Bind-n-Seq
# Molecule type: RNA
# Medium: in vitro
# Tested at: 200 nM
# Setting: whole 134-nt RNA, ends assumed
# With: 150 mM LiCl
# Baseline: input library
# Direction: higher = stronger binding
# Each molecule: 7-deaza-guanosine replaces G
# Constant ends, left off below: GGGAGUUCUACAGUCCGACGAUC … UGGAAUUCUCGGGUGUCAAGG
Oligonucleotide,log2 enrichment
ACCAUGCAGGUGGGCAUCUUUGGGAAGUGGGGCAAGGGGGGGAUAGGGAGGGGGGUAACACUUUGGGAACGGGUGGUCCCAGGUCGUUUC,1.41
GUCCUGUGCUACACAUCGUAUGUACCGAAUCGGGGCCCCCCGGCCCCCCGGCCCCCCGGAAAGUAUUAUGUUACGCCGUUCGGAUCUGCA,0.591
CUCAAGUCCUGUGCUACACAUCGUAUGUACCGAAUCGGUGGAAAAAAAGGAGGAAAGUAUUAUGUUACGCCGUUCGGAUCUGCACUUCCA,0.164
CUGUGCUACACAUCGUAUGUACCGAAUCGGAAAAAAAGGGGAAAAAAAGGGGAAAAAAAGGGAAAGUAUUAUGUUACGCCGUUCGGAUCU,0.251
UCCUCAAGUCCUGUGCUACACAUCGUAUGUACCGAAUCGGUGGGGUGGGUGGAAAGUAUUAUGUUACGCCGUUCGGAUCUGCACUUCCAG,0.422
UAAGGCCAGUAAAAUUUUAGUACCUGGAGGUUUGACUCUAAUUUUUGCACUGAUGGUGCCAAAGGGCCCUGAGUCAAAAGGAUAGCCAAG,-3.21
UCCCUGAGACGGCGGGCAACAGCAUCGGCAGGAACGCCAUGGCCGUCCCCUCCCAGCUCUUACCUUACCAUCGACCUCACAGACGACACA,1.65
UAACUUUACAGGAGGAUCUGAUGGAUAUGGCAGUGGACGUGGAUUUGGGGAUGGCUAUAAUGGGUAUGGAGGAGGACCUGGAGGUGGCAA,0.477

# Block 5
# Target: Histone acetyltransferase KAT6A, winged helix 2, GST fusion (KAT6A, Homo sapiens, UniProt Q92794, residues 85-181)
# Technique: protein binding microarray
# Molecule type: double-stranded DNA, one strand shown
# Medium: in vitro
# Tested at: not given
# Setting: 8-mer, flanks averaged, mean of 2 arrays, mostly near background
# Baseline: not given
# Direction: higher = stronger binding
# Residues (chain): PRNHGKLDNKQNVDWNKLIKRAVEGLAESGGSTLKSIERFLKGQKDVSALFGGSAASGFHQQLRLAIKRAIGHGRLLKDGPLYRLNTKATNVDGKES
Oligonucleotide,E-score
GAATCAAA,0.0347
GGTGGCCA,-0.0355
ACTGAGTA,-0.157
AATCACGA,-0.148
CGATTCAC,-0.12
GACAATCA,-0.0108
CTGAGCAC,0.0481
AATTGTGG,-0.225

# Single results of other studies
# Cell line: HEK-293T-ACE2-TMPRSS2
# Technique: cell count
# Tested at: concentration not given
Structure (SMILES),viability [%]
Cc1cc(C(=O)N(Cc2ccccn2)C2CC2)sc1C,68
Cc1n[nH]c(C)c1C(NC(=O)CSC12CC3CC(CC(C3)C1)C2)C(=O)O (stereo not shown),89

# Repeated from above (block 4):
Oligonucleotide,log2 enrichment
CUGUGCUACACAUCGUAUGUACCGAAUCGGAAAAAAAGGGGAAAAAAAGGGGAAAAAAAGGGAAAGUAUUAUGUUACGCCGUUCGGAUCU,0.251
GUCCUGUGCUACACAUCGUAUGUACCGAAUCGGGGCCCCCCGGCCCCCCGGCCCCCCGGAAAGUAUUAUGUUACGCCGUUCGGAUCUGCA,0.591
UAAGGCCAGUAAAAUUUUAGUACCUGGAGGUUUGACUCUAAUUUUUGCACUGAUGGUGCCAAAGGGCCCUGAGUCAAAAGGAUAGCCAAG,-3.21
